Measurements from different studies.
Compare with care: the assays were run in different laboratories.

SMILES | tested on | assay | test system | conditions | how to read | endpoint | result
CC1(C)SC2C(NC(=O)C(NC(=O)C3=C(O)C4(CC4)NC3=O)c3ccccc3)C(=O)N2C1C(=O)O (centres unmarked) | Escherichia coli | broth microdilution | ATCC 25922 wild type | together with: clavulanic acid 6 µg/mL | – | MIC | 25 µg/mL
OC(Cn1cncn1)(Cn1cncn1)c1ccc(F)cc1F | Candida | – | – | twelve fungal strains | – | MIC | 6.73 µM
CC(=O)NC[C@H]1CN(c2ccc(N3CCOCC3)c(F)c2)C(=O)O1 | Staphylococcus aureus | broth microdilution | vancomycin-resistant VRS11a | – | – | MIC | 2 µM
CC(C)NCC(O)c1ccc(O)c(O)c1 (centres unmarked) | – | – | ventricular cardiomyocytes, C57BL/6 mouse | dose not given, 0.772 s | – | sarcomere length | 1.72 µm
CCCCCCCCCC(=O)N[C@@H](Cc1c[nH]c2ccccc12)C(=O)N[C@H](CC(N)=O)C(=O)N[C@@H](CC(=O)O)C(=O)N[C@@H]1C(=O)NCC(=O)N[C@@H](CCCN)C(=O)N[C@@H](CC(=O)O)C(=O)N[C@H](C)C(=O)N[C@@H](CC(=O)O)C(=O)NCC(=O)N[C@H](CO)C(=O)N[C@@H]([C@H](C)CC(=O)O)C(=O)N[C@@H](CC(=O)c2ccccc2N)C(=O)O[C@@H]1C | Staphylococcus aureus | – | SH1000 | no lipid | – | MIC | 1 µg/mL
CNC(C)C1CCC(N)C(OC2C(N)CC(N)C(OC3OCC(C)(O)C(NC)C3O)C2O)O1 (centres unmarked) | Pseudomonas aeruginosa | – | clinical isolate RKI-No_612/16 | – | – | MIC | 8 µg/mL
N=C(N)c1ccc(OCc2ccc(Br)cc2COc2ccc(C(=N)N)cc2)cc1 | Escherichia coli | – | W3110 | in combination, checkerboard, together with: rifampicin | – | MIC | 6.25 µg/mL
CC(=O)NC[C@H]1CN(c2ccc(N3CCOCC3)c(F)c2)C(=O)O1 | Staphylococcus aureus | – | MRSA-11 | – | – | MIC | 2 µg/mL
N=C(N)c1ccc(OCCCCCOc2ccc(C(=N)N)cc2)cc1 | Escherichia coli | – | mcr-1 polymyxin-resistant | 20 h, compound alone | – | MIC | > 200 µg/mL
Cn1cc(-c2ccc(-c3cncc(Cl)c3N3CCC4(CCNC4=O)CC3)cc2)cn1 | COLO 205 | gene expression, microarray, measured: GNAZ mRNA | – | concentration not given, 2 h | reference: untreated cells | log2 fold change | 1.04
O=C1OC[C@H]2OC(O)[C@H](O)[C@@H](O)[C@@H]2OC(=O)c2cc(O)c(O)c(O)c2-c2c(O)c(O)c3oc(=O)c4c(c(O)c(O)c5oc(=O)c2c3c54)-c2c1cc(O)c(O)c2O (mixture of isomers) | Streptococcus mutans | – | – | 24 h, 37 °C | – | MIC | 200 µg/mL
CC1(C)S[C@@H]2[C@H](NC(=O)[C@H](N)c3ccccc3)C(=O)N2[C@H]1C(=O)O | Salmonella enterica serovar Typhimurium | broth microdilution | clinical isolate RKI-No 437/14 | – | – | MIC | > 16 µg/mL
CN(C)CCC(=O)Nc1ccc([C@H]2[C@@H](F)[C@@H](F)C[C@@H](F)[C@H]2F)cc1 | – | hepatocyte stability | cryopreserved human hepatocytes | 1 µM | – | hepatic clearance | 6.2 mL/min/kg
CC1(C)SC2C(NC(=O)C(NC(=O)C3=C(O)C4CCCN4C3=O)c3ccccc3)C(=O)N2C1C(=O)O (centres unmarked) | Escherichia coli | broth microdilution | BW25113 wild type | 18 h | – | MIC | 50 µg/mL
O=C(NCC1CCOCC1)c1ccc(C2CCCCC2)cc1 | – | liver microsome stability | cynomolgus liver microsomes | 1 µM | – | hepatic clearance | 40 mL/min/kg
CC(C)C[C@@H]1NC(=O)[C@@H](Cc2ccccc2)NC(=O)[C@H](CCN)NC(=O)[C@@H](NC(=O)[C@H](CCN)NC(=O)[C@@H](N)[C@@H](C)O)CCNC(=O)[C@H]([C@@H](C)O)NC(=O)[C@H](CCN)NC(=O)[C@H](CCN)NC1=O | Escherichia coli | rifampicin MIC with synergist, checkerboard | 552100 | concentration not given, together with: rifampicin | – | MIC | 0.09 µg/mL
Cc1cc(-c2cn[nH]c2-c2cccc(OCc3cccc(C#N)c3)c2)cc(C)n1 | Akkermansia muciniphila | broth microdilution | BAA-835 | anaerobic conditions | – | MIC | > 128 µg/mL

Repeated from above:
SMILES | tested on | assay | test system | conditions | how to read | endpoint | result
Cc1cc(-c2cn[nH]c2-c2cccc(OCc3cccc(C#N)c3)c2)cc(C)n1 | Akkermansia muciniphila | broth microdilution | BAA-835 | anaerobic conditions | – | MIC | > 128 µg/mL
CC1(C)SC2C(NC(=O)C(NC(=O)C3=C(O)C4CCCN4C3=O)c3ccccc3)C(=O)N2C1C(=O)O (centres unmarked) | Escherichia coli | broth microdilution | BW25113 wild type | 18 h | – | MIC | 50 µg/mL
